Published values gathered from unrelated publications.
Protocols differ between the studies behind these lines. Values joined by “and” are separate records of one study, mostly repeats; a detail may differ. ± gives the spread as reported. ≈ marks a conversion by molar mass, not a printed value.
UniProt O88693, sequence (whole entry, looked up): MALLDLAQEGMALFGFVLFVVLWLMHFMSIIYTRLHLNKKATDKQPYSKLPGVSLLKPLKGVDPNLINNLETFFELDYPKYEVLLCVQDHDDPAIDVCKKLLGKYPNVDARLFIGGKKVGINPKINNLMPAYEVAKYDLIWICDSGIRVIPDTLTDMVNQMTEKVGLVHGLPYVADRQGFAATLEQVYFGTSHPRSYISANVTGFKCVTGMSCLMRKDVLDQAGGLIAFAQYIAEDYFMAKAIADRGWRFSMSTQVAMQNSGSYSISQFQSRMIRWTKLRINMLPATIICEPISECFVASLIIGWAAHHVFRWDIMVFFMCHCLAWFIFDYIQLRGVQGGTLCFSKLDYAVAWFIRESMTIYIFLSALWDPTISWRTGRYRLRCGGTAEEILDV

Cc1ncsc1-c1ccc(C(C)NC(=O)C2CC(O)CN2C(=O)C(NC(=O)CCCCCCCCCCN2CCCC(Nc3ncc(Cl)c(Nc4ccccc4S(=O)(=O)C(C)C)n3)C2)C(C)(C)C)cc1 (stereo not shown) — log2 fold change (22Rv1; RNA-seq, item: TMEM44-AS1; concentration not given; reference: DMSO): -1.72
COC1OC(C)C(OS(=O)(=O)O)C(OC2OC(C)C(OS(=O)(=O)O)C(OC3OC(C)C(OS(=O)(=O)O)C(OC4OC(C)C(OS(=O)(=O)O)C(OC5OC(C)C(OS(=O)(=O)O)C(OC6OC(C)C(OS(=O)(=O)O)C(OC7OC(C)C(OS(=O)(=O)O)C(OC8OC(C)C(OS(=O)(=O)O)C(OC9OC(C)C(OS(=O)(=O)O)C(OC%10OC(C)C(OS(=O)(=O)O)C(OC%11OC(C)C(OS(=O)(=O)O)C(OC%12OC(C)C(OS(=O)(=O)O)C(OS(=O)(=O)O)C%12O)C%11O)C%10O)C9O)C8O)C7O)C6O)C5O)C4O)C3O)C2O)C1O (stereo not shown) — activated partial thromboplastin time (human plasma; 128 µg/mL): 44.3 ± 0.4 s
CO[C@@H]1[C@@H](OC(N)=O)[C@@H](O)[C@H](Oc2ccc3c(O)c(NC(=O)c4ccc(O)c(CC=C(C)C)c4)c(=O)oc3c2C)OC1(C)C — colony count (DLD-1 parental; 50 µM, replicate 1): 66.5
C=CC(=O)N1[C@@H](c2ccc3c(c2)OCO3)c2[nH]c3ccccc3c2C[C@H]1C(=O)N1CCN(C)CC1 — log2 fold change (CCNE1 WT-3xFLAG:CDK2 complex; co-IP TMT proteomics, item: TK1; HEK-293T; 20 µM, 6 h; reference: DMSO): 0.0144
COC1OC(C)C(OC2OC(C)C(O)C(OC3OC(C)C(OC4OC(C)C(O)C(OC5OC(C)C(OC6OC(C)C(O)C(OC7OC(C)C(OC8OC(C)C(O)C(OC9OC(C)C(O)C(OS(=O)(=O)O)C9OS(=O)(=O)O)C8OS(=O)(=O)O)C(OS(=O)(=O)O)C7OS(=O)(=O)O)C6OS(=O)(=O)O)C(OS(=O)(=O)O)C5OS(=O)(=O)O)C4OS(=O)(=O)O)C(OS(=O)(=O)O)C3OS(=O)(=O)O)C2OS(=O)(=O)O)C(OS(=O)(=O)O)C1OS(=O)(=O)O (stereo not shown) — activated partial thromboplastin time (human plasma; 64 µg/mL): 103 s and 99.4 s and 102 s
O=C(Nc1ccc(C2CCCCC2)cc1)C1CC1 — hepatic clearance (hepatocyte stability; cryopreserved human hepatocytes; 1 µM): 18 mL/min/kg
C[n+]1cccc2cc(/C=N/NC(=O)c3cncc(C(=O)N/N=C/c4ccc5c(ccc[n+]5C)c4)n3)ccc21 — ΔTm (22CTA telomeric G4-DNA antiparallel; FRET melting; 1 µM, K10 buffer, DNA 0.2 µM, together with: ds26 10 µM): 12.6 ± 0.3 °C
c1ccc(-c2n[nH]cc2-c2ccnc3ccccc23)nc1 — log2 fold change (CMK1 (Candida albicans); kinase binding, MIB/MS competition; Candida albicans lysate; 10 µM; reference: DMSO): -0.18
COC1CN([C@H]2CC[C@H]([C@@]3(C)Oc4c(Cl)cc(C(=O)NCc5c(SC)cc(C)[nH]c5=O)c(C)c4O3)CC2)C1 — log2 fold change (RNA-seq, item: PFKFB2 mouse homolog; mouse, HT-1376 xenograft, whole blood; dose not given; reference: vehicle): 0.243
C=CC(=O)Nc1cccc(Cn2ncc3cnc(Nc4cnn(CCOC)c4)nc32)c1 — percent of control (MERTK human; binding, KINOMEscan; 100 nM; lower = stronger binding): 100%
COC1OC(C)C(OC2OC(C)C(OS(=O)(=O)O)C(OC3OC(C)C(OC4OC(C)C(OS(=O)(=O)O)C(OS(=O)(=O)O)C4OS(=O)(=O)O)C(OS(=O)(=O)O)C3OS(=O)(=O)O)C2OS(=O)(=O)O)C(OS(=O)(=O)O)C1OS(=O)(=O)O (stereo not shown) — activated partial thromboplastin time (human plasma; 128 µg/mL): 32.3 ± 0.6 s
Nc1ncc(-c2cc(-c3cnn(CC(F)(F)F)c3)ncc2F)nc1C(=O)NC1CNCC(F)C1 (stereo not shown) — remaining binding (MAP3K2; KINOMEscan; 1 µM; reference: DMSO control): 36%
CC[n+]1cccc2cc(/C=N/NC(=O)c3ccc4ccc5ccc(C(=O)N/N=C/c6ccc7c(ccc[n+]7CC)c6)nc5c4n3)ccc21 — ΔTm (22CTA telomeric G4-DNA antiparallel; FRET melting; 1 µM, K10 buffer, DNA 0.2 µM): 26.9 ± 1 °C
C=C(NC(=O)c1csc(-c2nc3c(cc2O)-c2nc(cs2)C(=O)NC(C(C)O)C(=O)NC(=C(C)OC)c2nc(cs2)C(=O)NC2c4nc(cs4)C(=O)NC(COC(=O)c4c5c6c(cccc6n4O)COC(=O)C(OC4CC(C)(O)C(N(C)C)C(C)O4)C2OC5)c2nc-3cs2)n1)C(N)=O (stereo not shown) — MIC50 (Streptococcus pneumoniae; penicillin-resistant, 10 isolates; pH 7.0): 7.8 ng/mL (≈ 5.43 nM)
CC[n+]1cccc2cc(/C=N/NC(=O)c3cccc(C(=O)N/N=C/c4ccc5c(ccc[n+]5CC)c4)n3)ccc21 — ΔTm (22CTA telomeric G4-DNA antiparallel; FRET melting; 1 µM, K10 buffer, DNA 0.2 µM, together with: ds26 10 µM): 13.1 ± 0.5 °C
CCCCCCN1C[C@H](O)[C@@H](O)[C@H](O)[C@H]1CO — IC50 (Ugcg (Mus musculus, UniProt O88693); enzyme activity, inhibitor, fluorescence): 20 µM
O=C(N/N=C/c1ccc(C[n+]2ccccc2)cc1)c1cccc(C(=O)N/N=C/c2ccc(C[n+]3ccccc3)cc2)n1 — ΔTm (22CTA telomeric G4-DNA antiparallel; FRET melting; 1 µM, K10 buffer, DNA 0.2 µM, together with: ds26 10 µM): 12.2 ± 0.6 °C
COC1OC(C)C(OC2OC(C)C(O)C(OC3OC(C)C(OC4OC(C)C(O)C(OS(=O)(=O)O)C4OS(=O)(=O)O)C(OS(=O)(=O)O)C3OS(=O)(=O)O)C2OS(=O)(=O)O)C(OS(=O)(=O)O)C1OS(=O)(=O)O (stereo not shown) — activated partial thromboplastin time (human plasma; 128 µg/mL): 46.1 ± 1.3 s
O=C(N/N=C/c1ccc2c(ccc[n+]2Cc2ccccc2)c1)c1ccc2ccc3ccc(C(=O)N/N=C/c4ccc5c(ccc[n+]5Cc5ccccc5)c4)nc3c2n1 — ΔTm (22CTA telomeric G4-DNA antiparallel; FRET melting; 1 µM, K10 buffer, DNA 0.2 µM, together with: ds26 10 µM): 20.7 ± 0.8 °C
Nc1nc2cc(CC[C@H]3C[C@@H](n4ccc5c(N)ncnc54)[C@H](O)[C@@H]3O)ccc2cc1Br — %ΔTGI (NCI-H1048 xenograft, mouse; 10.0 mg/kg/day, day 28): 104%
CC[n+]1cccc2cc(/C=N/NC(=O)c3cncc(C(=O)N/N=C/c4ccc5c(ccc[n+]5CC)c4)n3)ccc21 — ΔTm (22CTA telomeric G4-DNA antiparallel; FRET melting; 1 µM, K10 buffer, DNA 0.2 µM): 14.4 ± 0.3 °C
O=C(NC1CCOCC1)c1ccc([C@H]2[C@@H](F)[C@@H](F)C[C@@H](F)[C@H]2F)cc1 — hepatic clearance (liver microsome stability; human liver microsomes; 1 µM, without NADPH): 3.9 mL/min/kg

Repeated from above:
COC1OC(C)C(OC2OC(C)C(OS(=O)(=O)O)C(OC3OC(C)C(OC4OC(C)C(OS(=O)(=O)O)C(OS(=O)(=O)O)C4OS(=O)(=O)O)C(OS(=O)(=O)O)C3OS(=O)(=O)O)C2OS(=O)(=O)O)C(OS(=O)(=O)O)C1OS(=O)(=O)O (stereo not shown) — activated partial thromboplastin time (human plasma; 128 µg/mL): 32.3 ± 0.6 s
Nc1ncc(-c2cc(-c3cnn(CC(F)(F)F)c3)ncc2F)nc1C(=O)NC1CNCC(F)C1 (stereo not shown) — remaining binding (MAP3K2; KINOMEscan; 1 µM; reference: DMSO control): 36%
